# Results collected from several papers.
# Every numbered part comes from another study and shows a few of its results, in no order. Changes are numbered by the printed parent chain.

# Study 1 — method: RNA Bind-n-Seq; form: RNA; medium: in vitro; tested at: not given; setting: RNA with constant flanks, ends assumed; baseline: input RNA pool; reading: higher = stronger binding
# Target: RING finger protein unkempt homolog, zinc fingers 1-6, GST-SBP tag (UNK, Homo sapiens, UniProt Q9C0B0, residues 30-357)
# Target sequence (chain): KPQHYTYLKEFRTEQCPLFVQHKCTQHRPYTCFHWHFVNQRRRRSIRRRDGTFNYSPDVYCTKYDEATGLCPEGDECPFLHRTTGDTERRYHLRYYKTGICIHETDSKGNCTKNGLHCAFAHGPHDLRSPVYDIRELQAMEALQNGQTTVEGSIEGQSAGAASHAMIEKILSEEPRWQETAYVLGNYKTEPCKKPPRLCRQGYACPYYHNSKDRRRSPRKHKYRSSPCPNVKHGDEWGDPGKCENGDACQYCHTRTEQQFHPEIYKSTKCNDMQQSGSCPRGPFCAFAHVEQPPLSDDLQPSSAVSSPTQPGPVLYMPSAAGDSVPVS
Strand,bound/input enrichment
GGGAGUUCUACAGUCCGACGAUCCCUGUCAUUCACAACGGAAGCCAAGGAACAGGAACAAAUGGUUCGGAAAUCAGUGACCGUGAUUAUCAGGCAGAAUACCCUGAUGAGUAUCAUGGCGAGUACCAGGAUGACUACCCCAGACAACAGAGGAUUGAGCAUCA,0.0987 ratio
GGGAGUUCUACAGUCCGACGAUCACCAGAGAUGAGACCAACUAUGGCAUACCACAGCGUGCUCUGAGAGGUCACUCCCACUUCGUCCGUGAUGUUGUUAUCUCCUCUGAUGGUCAGUUUGCCCUCUCGGGCUCCUGGGACGGACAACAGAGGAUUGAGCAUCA,0.0896 ratio
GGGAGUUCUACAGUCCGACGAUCACAUUAAAGUCCUAAGUCAUCUAAGCCAUUCAUUGCCUGUGAAUUAUUCUGCUUGCUUUUUCCGUCAGGUGCUGCUUUUAAACAUUCUGAUGGGGAGCCUAGGGUUUAAAAUUAGCCUGUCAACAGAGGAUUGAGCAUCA,1.45 ratio
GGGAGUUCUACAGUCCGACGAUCUUCUGGUUCAGAUCUGUGCCGUUGGCUGCCACAAGUAUGCUGAUUACUCAAGGAUUAAUCCGUAAAGGAAUCCUGUCAAGUCAUCCAAAAUAUGGUUCAAUUCCUAAACUUCUAUUCGCUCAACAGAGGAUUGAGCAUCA,0.147 ratio
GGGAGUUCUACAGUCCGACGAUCUGUGAGCAGAAAAGAGGCAAAGAUAAUAAAGCUAUUAUUGCAUCGAAUAUCAUGUACACCGCCGGUCAAUACCCAAGAUUUUUGAGAGCACACUGGAAAUUUUUGAAGACAGUAGUAAACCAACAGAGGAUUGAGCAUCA,0.23 ratio
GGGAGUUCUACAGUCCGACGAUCUUUUACCUGGAUAGGACUCUGUGGCUGGCCAAGUCCACCUCCUCAUCCUUUGCAUCAUUUACCGUUCAACUUUUCCAAGUGGUUUUAAUGAAGCUCAAUUUUGAAACUUACAAAUUGAAACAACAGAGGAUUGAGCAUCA,0.385 ratio
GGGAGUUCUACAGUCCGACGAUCCCAGACAGCCCAUCCCCAGACCGAUUUGGGAUGUUGCCCCUGGAUGAGCCUGCUAUUCUUGUCCGUGAAUUCCUAGAUCGUUUUCAAAGCCUUUGUCACUUGGACCUCCAGCUUCCUUCCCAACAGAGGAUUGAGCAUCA,0.292 ratio
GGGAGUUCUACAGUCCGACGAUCGUUUUAAUAAAGGCUCUUGAAAUUACAAAAGCAAGUCACGUGAGCCCCCACCCAGGAGACCGCUGGAUUCCUUUACUCAUUAAUGCCGUUGACCAUUGCAUGAACAGAAUUAAGGCGCUCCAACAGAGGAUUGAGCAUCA,0.255 ratio
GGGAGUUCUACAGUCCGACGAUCGGACCGUGCCCUAGAAUUUGCCCCUGCCUGCCAUCGCUUCAAAAUCCUCAAGGCAGAAUGUUCCGCAAUGCUGGGUCGUUAUCCAGAAGCACAGUCUGUGGCUAGUGACAUUCUACGAAUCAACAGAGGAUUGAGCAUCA,0.25 ratio
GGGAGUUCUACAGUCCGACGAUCAGGCCAUUGAUGCAUCUUUCCGACUGUAUGUUCUGUGUAUAAUGCUGUUCUUGGUGCUAAACCGACUUUCUUUCCUCUGAUAUUCAGGAUAAUUUUUCUCUAUACUUCUGUUCACUUGUUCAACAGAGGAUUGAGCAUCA,0.532 ratio
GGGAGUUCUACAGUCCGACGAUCGUAAUCUUCCAAAGGAAGCUCUUUCAGGCCUUGAGGAAGCAUCCUGCUUAUCCCAAAGUAACCGAAGAGUUUGUUAAUGGCCUGGAGUCCUACACUGAGGACAGUGAGAGUCUCAGGAACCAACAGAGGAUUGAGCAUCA,0.1 ratio

# Study 2 — target: CCNB2, cyclin fold, Cln2 fusion (human); method: yeast growth competition, sequencing; medium: yeast; setting: weak parent motif; baseline: not given; reading: higher = stronger binding
# Parent: RBL2 docking peptide (human); STTRRRLFVENDS
Variant,normalised enrichment score
R5D,-0.297
R5M,0.399
R5L,0.0135
L7S,-0.0335
R6S,0.469
R4E,-0.194
L7P,0.413
D12C,0.29
L7K,0.0648

# Study 3 — target: CRIPT, C-terminal peptide; method: DHFR complementation, deep sequencing; medium: yeast; baseline: wild type; reading: higher = weaker binding
# Setting: single substitutions, model-inferred values
# Parent: ERBIN, PDZ domain 1 (human); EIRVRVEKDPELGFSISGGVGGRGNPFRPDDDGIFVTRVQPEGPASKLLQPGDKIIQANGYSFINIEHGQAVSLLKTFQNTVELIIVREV; partner TKNYKQTSV
Variant,binding free energy change [kcal/mol]
Q79H,0.13
F14D,0.98
P51N,0.416
L84P,0.677
F14R,0.672
G21W,0.199
S17G,0.968
G13N,1.21
R28F,0.141

# Other studies, line by line
Molecule,target,assay,system,setting,scale,quantity,value
"PhoQ, residues 284 288 289 292 302 303 SLKLQV","PhoP, residues 12 14 15 18 19 HEGLL (Escherichia coli, UniProt P23836)","Sort-seq, measured: YFP reporter",E. coli,"PhoQ-PhoP variant library, added: 10 µM Mg2+","baseline: high Mg2+ state, higher = stronger signaling",fold induction,15.4

# Repeated from above (study 3):
Variant,binding free energy change [kcal/mol]
P51N,0.416
S17G,0.968
